Results gathered from unrelated publications.
Lines come from different studies, so protocols differ. Values joined by “and” are separate records of one study, mostly repeats; a detail may differ. ± marks the error that the study gave.
Genome polyprotein NS3 helicase domain: Genome polyprotein, NS3 helicase domain (Hepatitis C virus genotype 1b, UniProt Q9WMX2)
ESR1: Estrogen receptor (ESR1, Homo sapiens, UniProt P03372)
WD repeat-containing protein 91: WD repeat-containing protein 91 (Homo sapiens, UniProt A4D1P6)
UniProt A4D1P6, sequence (whole entry, looked up): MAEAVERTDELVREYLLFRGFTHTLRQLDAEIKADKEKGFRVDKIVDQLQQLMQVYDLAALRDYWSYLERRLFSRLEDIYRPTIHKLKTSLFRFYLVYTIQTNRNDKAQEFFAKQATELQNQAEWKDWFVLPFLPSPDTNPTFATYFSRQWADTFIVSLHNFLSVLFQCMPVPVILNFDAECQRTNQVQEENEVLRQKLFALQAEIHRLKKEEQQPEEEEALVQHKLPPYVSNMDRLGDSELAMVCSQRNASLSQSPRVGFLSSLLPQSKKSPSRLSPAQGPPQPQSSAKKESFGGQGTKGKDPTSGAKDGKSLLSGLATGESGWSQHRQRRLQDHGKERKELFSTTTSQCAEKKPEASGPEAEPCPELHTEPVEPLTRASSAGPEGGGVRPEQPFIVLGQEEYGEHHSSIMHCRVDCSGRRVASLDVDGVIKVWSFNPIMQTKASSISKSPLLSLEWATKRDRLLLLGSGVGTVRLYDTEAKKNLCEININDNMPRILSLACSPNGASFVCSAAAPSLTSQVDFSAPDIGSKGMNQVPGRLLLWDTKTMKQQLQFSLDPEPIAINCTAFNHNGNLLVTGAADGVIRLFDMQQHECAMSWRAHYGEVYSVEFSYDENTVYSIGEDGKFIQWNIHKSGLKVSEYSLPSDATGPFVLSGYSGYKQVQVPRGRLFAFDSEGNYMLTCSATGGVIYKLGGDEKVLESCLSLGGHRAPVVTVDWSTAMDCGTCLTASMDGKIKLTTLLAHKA
WD repeat-containing protein 91 WD40 domain, residues 392–747: WD repeat-containing protein 91, WD40 domain, residues 392–747 (Homo sapiens, UniProt A4D1P6)
UniProt Q16774, sequence (whole entry, unmodified, looked up): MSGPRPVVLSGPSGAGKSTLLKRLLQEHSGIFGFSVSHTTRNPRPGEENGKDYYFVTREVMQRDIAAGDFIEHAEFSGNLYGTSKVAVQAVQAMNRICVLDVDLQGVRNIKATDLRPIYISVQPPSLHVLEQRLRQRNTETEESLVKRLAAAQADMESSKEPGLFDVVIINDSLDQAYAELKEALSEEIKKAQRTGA
UniProt O76090, sequence (whole entry, unmodified, looked up): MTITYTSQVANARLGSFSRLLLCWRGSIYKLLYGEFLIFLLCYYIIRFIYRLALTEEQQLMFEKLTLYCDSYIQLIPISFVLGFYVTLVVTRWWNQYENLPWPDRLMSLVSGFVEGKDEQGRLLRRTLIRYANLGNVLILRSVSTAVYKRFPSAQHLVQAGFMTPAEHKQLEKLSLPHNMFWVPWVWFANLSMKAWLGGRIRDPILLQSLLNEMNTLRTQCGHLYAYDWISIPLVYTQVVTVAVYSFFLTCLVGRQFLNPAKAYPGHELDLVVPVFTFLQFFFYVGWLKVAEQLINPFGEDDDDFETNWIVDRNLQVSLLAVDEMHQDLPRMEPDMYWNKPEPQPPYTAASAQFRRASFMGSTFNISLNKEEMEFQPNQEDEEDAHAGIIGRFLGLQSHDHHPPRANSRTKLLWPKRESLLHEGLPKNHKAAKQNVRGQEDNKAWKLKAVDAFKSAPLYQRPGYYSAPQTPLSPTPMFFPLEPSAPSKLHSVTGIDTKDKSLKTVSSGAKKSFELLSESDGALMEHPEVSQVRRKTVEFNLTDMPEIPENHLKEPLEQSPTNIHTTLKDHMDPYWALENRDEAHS
UniProt P51449, sequence (whole entry, looked up): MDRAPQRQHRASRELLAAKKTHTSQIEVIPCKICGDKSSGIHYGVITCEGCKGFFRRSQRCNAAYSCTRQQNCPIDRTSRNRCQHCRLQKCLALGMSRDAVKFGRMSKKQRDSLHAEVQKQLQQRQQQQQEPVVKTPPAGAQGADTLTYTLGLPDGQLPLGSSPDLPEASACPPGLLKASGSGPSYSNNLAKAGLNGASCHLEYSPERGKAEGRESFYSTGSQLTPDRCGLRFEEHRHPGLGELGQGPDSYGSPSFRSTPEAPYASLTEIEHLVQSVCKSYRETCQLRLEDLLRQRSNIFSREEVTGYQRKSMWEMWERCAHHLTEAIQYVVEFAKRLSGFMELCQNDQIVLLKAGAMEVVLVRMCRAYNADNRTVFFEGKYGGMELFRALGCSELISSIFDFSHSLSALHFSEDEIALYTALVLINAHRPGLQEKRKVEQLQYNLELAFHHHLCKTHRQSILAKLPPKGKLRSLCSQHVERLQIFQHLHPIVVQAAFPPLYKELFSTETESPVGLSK

Compound | target | assay | system | setting | scale | quantity | value
CO/N=C(\C(=O)N[C@@H]1C(=O)N2C(C(=O)O)=C(COC(C)=O)CS[C@H]12)c1csc(N)n1 | Genome polyprotein NS3 helicase domain | DNA binding, inhibitor | hepatitis C virus | 100 µM, together with: Cy5-dT15 DNA | – | inhibition | 6%
C[C@]12CC[C@@H]3c4ccc(O)cc4C[C@@H](CCCCCCCCC[S+]([O-])CCCC(F)(F)C(F)(F)F)[C@H]3[C@@H]1CC[C@@H]2O (some centres unmarked) | ESR1 | antagonist, CALUX reporter | U2OS | 3e-05 µg/mL | – | antagonist response | 25.2%
O=C(NC1CCCS(=O)(=O)c2ccccc21)c1ccc2nc(O)cnc2c1 (centres unmarked) | WD repeat-containing protein 91 | binding, SPR steady state | – | 3.75 µM | – | SPR response | 20.6 RU
COc1cc(/C=C2\CC/C(=C\c3ccc(O)c(OC)c3)C2=O)ccc1O | haemin | isothermal titration calorimetry | – | concentration not given, pH 7.4, 37 °C | – | binding stoichiometry | 0.52 ± 0.24
NC(N)=O | N-alpha-acetyltransferase 80 (NAA80, Homo sapiens, UniProt Q93015) | substrate, DTNB | – | 2 mM, 30 min, 37 °C, together with: acetyl-CoA 500 µM | – | product formation | 1.58 µM
O=C(COP(=O)(O)O)[C@@H](O)[C@H](O)[C@H](O)COP(=O)(O)O | RAN (Homo sapiens, UniProt P62826) | thermal proteome profiling | HepG2 cell lysate | concentration not given, 57 over 37 °C, mean | baseline: compound over control | thermal stability ratio | 0.534
COC(=O)CCc1c(C)nn(-c2ccc(C(=O)N3CCC(C#N)CC3)cc2)c1C | WD repeat-containing protein 91 WD40 domain, residues 392–747 | binding, SPR single-concentration screen | – | 45 µM | – | SPR response | -6.5 RU and 0.3 RU
CC[C@@H]1[C@H](F)C(=O)N[C@@H]1COc1nccc2cc(C(N)=O)c(OC)cc12 | EIF2AK4 (Homo sapiens, UniProt Q9P2K8) | ATP-site probe binding, ActivX profiling, refers to: GCN2 | THP-1 cell lysate | 0.04 mM, Lys1 site | – | inhibition | -11.3%
CCn1c(=O)[nH]c2cc(C(=O)NC(c3ccc(F)cc3)c3cnn(C)c3)ccc2c1=O (centres unmarked) | WD repeat-containing protein 91 | binding, SPR steady state | – | 3.75 µM | – | SPR response | 19.8 RU
Nc1nc2c(ncn2[C@@H]2O[C@H](COP(=O)(O)O)[C@@H](O)[C@H]2O)c(=O)[nH]1 | GUK1 (Homo sapiens, UniProt Q16774, R148A) | enzyme activity, NADH-coupled | – | 250 µM | – | reaction rate | 0.0552 s⁻¹ and 0.359 s⁻¹ and 0.471 s⁻¹
COc1cc(Nc2ncc3c(n2)-c2ccc(Cl)cc2C(c2c(F)cccc2OC)=NC3)ccc1C(=O)O | EPHA3 | kinase activity | – | 1 µM | – | remaining activity | 78%
CC[C@H](C)[C@H](NC(=O)[C@H](CCCCN)NC(=O)CNC(=O)[C@@H](NC(=O)[C@@H](NC(=O)[C@H](CCSC)NC(=O)[C@H](Cc1c[nH]cn1)NC(=O)CN)[C@@H](C)O)C(C)C)C(=O)N[C@@H](Cc1ccc(O)cc1)C(=O)N[C@@H](C)C(=O)N[C@@H](C)C(=O)N[C@@H](C)C(=O)N[C@@H](CCSC)C(=O)N[C@H](C(=O)N[C@@H](CCSC)C(=O)N[C@@H](CCC(=O)O)C(=O)N[C@@H](Cc1ccc(O)cc1)C(=O)N[C@@H](Cc1ccc(O)cc1)C(=O)N[C@@H](CCCNC(=N)N)C(=O)N[C@@H](CCC(N)=O)C(=O)N[C@@H](CO)C(=O)N[C@@H](CCCCN)C(=O)N[C@@H](C)C(=O)N[C@@H](CCCCN)C(=O)N[C@@H](CCCCN)C(=O)N[C@@H](CC(C)C)C(=O)N[C@@H](CCC(N)=O)C(=O)N[C@@H](C)C(=O)N[C@@H](CCSC)C(=O)N[C@@H](CCCNC(=N)N)C(=O)O)[C@@H](C)CC | Calmodulin-1, Ca2+-bound C-lobe (CALM1, Homo sapiens, UniProt P0DP23) | binding, isothermal titration calorimetry | – | pH 7.4, 15 °C, C-lobe, CaV2.1 IQ domain, together with: Ca2+ | – | ΔS | 23 ± 0.5 cal/mol/K
C=CC(=O)N1CCC(COCC(=O)N2CCN(c3nc(-c4cnc(N)nc4C(F)F)nc(N4CCOC[C@@H]4C)n3)CC2)CC1 | PRKD1 (Homo sapiens, UniProt Q15139) | KINOMEscan | – | 1 µM | – | remaining binding | 100%
C[N+]1(CCCCC[N+]2(C)CCCC2)CCCC1.O=C([O-])C(O)C(O)C(=O)O.O=C([O-])C(O)C(O)C(=O)O | Genome polyprotein NS3 helicase domain | DNA binding, inhibitor | hepatitis C virus | 100 µM, together with: Cy5-dT15 DNA | – | inhibition | 4%
Nc1ccc(C(=O)O)cc1 | BEST1, with wild-type BEST1 (Homo sapiens, UniProt O76090, A243T) | whole-cell patch clamp | HEK293 co-expressing WT and A243T mutant | concentration not given, membrane potential 40 mV | – | current density | 3.71 pA/pF and 3.77 pA/pF and 11.9 pA/pF and 11.3 pA/pF and 11.8 pA/pF and 9.33 pA/pF and 14.6 pA/pF
N#CC1CCN(C(=O)c2ccc(CSc3nc4ccccc4s3)cc2)CC1 | WD repeat-containing protein 91 WD40 domain, residues 392–747 | SPR | – | 45 µM | – | binding | 18% and 33%
Nc1c(Br)cc(Br)cc1CN[C@H]1CC[C@H](O)CC1 | Glutamate receptor 2 (Homo sapiens, UniProt P42262) | ion current, agonist, SyncroPatch patch clamp | HEK293 | 10 µM | – | activation | 8%
CCc1cnn2c(NCc3ccc[n+]([O-])c3)cc(N3CCCC[C@H]3CCO)nc12 | BRD4 (Homo sapiens, UniProt O60885) | 19F NMR, refers to: tyrosine 119 | – | 24 µM | baseline: free protein | chemical shift change | -0.1 ppm
CC(C)(C)[C@]1(O)CCN2C[C@H]3c4ccccc4CCc4cccc(c43)[C@@H]2C1 | Genome polyprotein NS3 helicase domain | DNA binding, inhibitor | hepatitis C virus | 100 µM, together with: Cy5-dT15 DNA | – | inhibition | 0%
Cc1ccc(N(C)C(=O)/C=C/c2ccco2)cc1 | Voltage-dependent N-type calcium channel subunit alpha-1B (Homo sapiens, UniProt Q00975) | potentiator | HEK293T | concentration not given | – | potentiation | inactive
CCCCCCCCC(=O)c1cc(O)c(O)c(O)c1 | RORC (Homo sapiens, UniProt P51449) | reporter gene, Gal4 hybrid reporter | – | 10 µM | baseline: vehicle | activation | 0.87 fold
CC[C@@H](C)[C@@H](NC(=O)[C@@H](Cc1ccc(O)cc1)NC(=O)[C@H]1CCCN1C(=O)[C@@H](CCCNC(=N)N)NC(=O)[C@H](N)Cc1c[nH]cn1)C(=O)N[C@H](C)C(=O)N[C@H](Cc1c[nH]cn1)C(=O)N[C@H](CCCNC(=N)N)C(=O)N[C@@H](C(=O)N[C@H](Cc1ccc(O)cc1)C(=O)N[C@H](CO)C(=O)N[C@H](Cc1ccccc1)C(N)=O)C(C)C | Transferrin receptor protein 1 (Tfrc, Mus musculus, UniProt Q62351) | flow cytometry | DC2.4 | 2 h, pH 6, replicate 3, unit not given | baseline: 0 h | surface TFRC expression | 0.953
O=C(/C=C/c1ccc(O)cc1)c1c(O)cc(O)cc1O | ESR1 | array formation | PRL-HeLa | – | baseline: EC50 ERβ over EC50 ERα | selectivity ratio | 4.79
CCCCCCCCCCCCCCCCCCOCC(COP(=O)([O-])OCC[N+](C)(C)C)OC (centres unmarked) | Genome polyprotein NS3 helicase domain | DNA binding, inhibitor | hepatitis C virus | 100 µM, together with: Cy5-dT15 DNA | – | inhibition | 0%
N=C(N)Nc1nc2ccccc2[nH]1 | HVCN1 (Homo sapiens, UniProt Q96D96, F182A) | proton current, inhibitor, inside-out patch clamp | – | – | – | Hill coefficient | 0.84 ± 0.05
CC(C)(CO)Cc1cc(C(C)(C)C)c(O)c(C(C)(C)C)c1 | Genome polyprotein NS3 helicase domain | DNA binding, inhibitor | hepatitis C virus | 100 µM, together with: Cy5-dT15 DNA | – | inhibition | 0%
N#Cc1cccc2c1CC[C@H]2NC(=O)c1ccc(OCc2nc3ccccc3s2)cc1 | WD repeat-containing protein 91 WD40 domain, residues 392–747 | binding, SPR single-concentration screen | – | 45 µM | – | SPR response | -16.9 RU and -8.4 RU
COc1ccc(/C=C/C(=O)Nc2ccccc2C(=O)O)cc1OC | Genome polyprotein NS3 helicase domain | DNA binding, inhibitor | hepatitis C virus | 100 µM, together with: Cy5-dT15 DNA | – | inhibition | 1%
O=C1CCc2ccc(OCCCCN3CCN(c4cccc(Cl)c4Cl)CC3)cc2N1 | PRDX3 (Homo sapiens, UniProt P30048) | binding | – | 20 µM | – | SPR response | ~20 RU

Excerpt of the above:
Compound | target | assay | system | setting | scale | quantity | value
O=C(/C=C/c1ccc(O)cc1)c1c(O)cc(O)cc1O | ESR1 | array formation | PRL-HeLa | – | baseline: EC50 ERβ over EC50 ERα | selectivity ratio | 4.79
CCCCCCCCCCCCCCCCCCOCC(COP(=O)([O-])OCC[N+](C)(C)C)OC (centres unmarked) | Genome polyprotein NS3 helicase domain | DNA binding, inhibitor | hepatitis C virus | 100 µM, together with: Cy5-dT15 DNA | – | inhibition | 0%
